Experimental data from different studies.
Each numbered part is a random draw from the data of one study; scales do not carry over between parts. Substitutions count along the parent as printed.

Set 1
Target: Fragile X messenger ribonucleoprotein 1, C-terminal low-complexity region (Fmr1, Mus musculus, UniProt P35922)
Method: RNA Bind-n-Seq
Molecule type: RNA
Sample: in vitro
Tested at: 200 nM
Notes: whole 134-nt RNA, ends assumed
Together with: 150 mM KCl
Relative to: input library
Direction: higher = stronger binding
Quantity: log2 enrichment
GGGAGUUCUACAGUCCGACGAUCAGUCCUGUGCUACACAUCGUAUGUACCGAAUCGGGGAAAGGGGAGGGGUUUUUGGGGAAAGUAUUAUGUUACGCCGUUCGGAUCUGCACUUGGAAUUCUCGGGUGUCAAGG: 0.606
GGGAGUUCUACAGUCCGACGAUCGCAGGAAGUAAAAACAGAUGGAAAUGCUUCGGAUAGUGGCAGGGGUGGGGGUUGCUAAGGAAAGGGUGGGAUGGGAGUGGGUAAAGAGUUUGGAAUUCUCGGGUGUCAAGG: 0.669
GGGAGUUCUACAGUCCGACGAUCCCUGUGCUACACAUCGUAUGUACCGAAUCGGGGAAAGGGGUUUUUGGGGAAAAAAAGGGGAAAGUAUUAUGUUACGCCGUUCGGAUCUGCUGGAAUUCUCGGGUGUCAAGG: 0.162
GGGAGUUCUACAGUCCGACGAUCCUCAAGUCCUGUGCUACACAUCGUAUGUACCGAAUCGGCCGGGGCCGGCCGGGAAAGUAUUAUGUUACGCCGUUCGGAUCUGCACUUCCAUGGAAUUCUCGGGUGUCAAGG: -0.305
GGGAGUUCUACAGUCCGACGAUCGUCCUGUGCUACACAUCGUAUGUACCGAAUCGGGGUUUUUGGUUUUUGGGGUUUUUGGAAAGUAUUAUGUUACGCCGUUCGGAUCUGCACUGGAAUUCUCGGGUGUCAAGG: -0.166
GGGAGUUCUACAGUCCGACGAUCCAAGUCCUGUGCUACACAUCGUAUGUACCGAAUCGGUUUGGAAAAAGGUUUUUGGAAAGUAUUAUGUUACGCCGUUCGGAUCUGCACUUCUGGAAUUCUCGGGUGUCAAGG: -0.827
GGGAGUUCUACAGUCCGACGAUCACCAUGCAGGUGGGCAUCUUUGGGAAGUGGGGCAAGGGGGGGAUAGGGAGGGGGGUAACACUUCGGGAACAGGUGGUCCCAGGUCGUUUCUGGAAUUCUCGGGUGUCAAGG: 0.843
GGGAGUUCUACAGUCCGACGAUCUCAAGUCCUGUGCUACACAUCGUAUGUACCGAAUCGGUUUGGGUUUGGUUUGGGAAAGUAUUAUGUUACGCCGUUCGGAUCUGCACUUCCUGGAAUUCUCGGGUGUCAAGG: -0.41
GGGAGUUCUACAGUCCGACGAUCUGGGAGGUGGAUUUUGUUUAUUUUUUUAGCUCAUUUCCAGGGGGGGGAAUUUUUUUUUAAUAUGUGUCAUGAAUAAAGUUGUUUUUGAAAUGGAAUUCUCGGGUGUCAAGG: 0.318
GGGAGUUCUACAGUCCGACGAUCUGGCCCUGGUGGCAUGCGGGGAGGAAGAGGUGGCCUCAUGGAUCGUGGUGGUCCCGGUGGAAUGUUCAGAGGUGGCUGUGGUGGAGACAGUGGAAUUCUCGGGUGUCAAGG: 0.234
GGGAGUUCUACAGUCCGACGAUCGCAGGAAGUAAAAACAAAUGGAAAUGCUUCGGAUAGUGGCAGGGGUGGGGGUUGCUAAGGAAAGGGUGGGAUGGGAUUGGGUAAAGAGUUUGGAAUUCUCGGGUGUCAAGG: 0.262
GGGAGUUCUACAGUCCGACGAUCAUUUUUUGUAUCAAGUCCCUGAAUGGAAGUAUGACGUUGGGUCCCUCUGAAGUUUAAUUCUGAGUUCUCAUUAAAAGAAAUUUGCUUUCAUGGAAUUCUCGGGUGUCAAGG: -1.52
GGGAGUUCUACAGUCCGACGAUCAGUCCUGUGCUACACAUCGUAUGUACCGAAUCGGGGAAAAAGGGGUUUGGGGUGGGGAAAGUAUUAUGUUACGCCGUUCGGAUCUGCACUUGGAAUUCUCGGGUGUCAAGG: 0.927
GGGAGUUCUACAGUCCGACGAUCCUCAAGUCCUGUGCUACACAUCGUAUGUACCGAAUCGGGCCGGGGCCGGCCGGAAAGUAUUAUGUUACGCCGUUCGGAUCUGCACUUCCAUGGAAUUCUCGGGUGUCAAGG: -0.169

Set 2
Target: Histone acetyltransferase KAT6A, winged helix 1, GST fusion (KAT6A, Homo sapiens, UniProt Q92794, residues 1-85)
Method: protein binding microarray
Molecule type: double-stranded DNA, one strand shown
Sample: in vitro
Tested at: not given
Notes: 8-mer, flanks averaged, mean of 2 arrays, mostly near background
Relative to: not given
Direction: higher = stronger binding
Quantity: E-score
Target sequence (chain): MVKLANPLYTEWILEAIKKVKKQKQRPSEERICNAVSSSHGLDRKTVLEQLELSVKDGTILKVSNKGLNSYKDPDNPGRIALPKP
GTGGAAAA: -0.122
CGTAAGAA: 0.0114
AACAACAT: -0.133
CCACCTCG: -0.13
GGACCACC: -0.0486
GAGCGACC: 0.0942
ACCTCTCA: -0.0848
GCGATCCC: 0.192
ACCCCAAA: -0.211
CCCATGGC: -0.0458
CGACTATA: -0.132
CAGTCTAG: -0.119
GAGAGTTA: -0.172
ACGCGTCG: 0.424
CGGTGTAG: 0.197
AGTATCCA: -0.203
GTCTTTGA: -0.05
CTAATTGC: 0.0188
CCGATATA: -0.0542
GCATTCGC: 0.258
CACACCCC: -0.0534
AGGCTTAC: 0.00215
ATTTGGTA: -0.19
ATTTGTGC: -0.00879

Set 3
Target: Interferon regulatory factor 7, full length, phosphomimetic (IRF7, Homo sapiens, UniProt Q92985, residues 1-503, S471D/S472D/S475D/S476D/S477D/S483D/S484D/S487D)
Method: protein-binding microarray
Molecule type: double-stranded DNA, one strand shown
Sample: in vitro
Tested at: 2200 nM top
Notes: 60-bp whole probe
Together with: salmon DNA 0.4 mg/ml
Relative to: random background probes
Direction: higher = stronger binding
Quantity: fitted relative affinity
All sequences stand within: GCCTAGCAC … GTCTTGATTCGCTTGACGCTGCTG
Target sequence (chain): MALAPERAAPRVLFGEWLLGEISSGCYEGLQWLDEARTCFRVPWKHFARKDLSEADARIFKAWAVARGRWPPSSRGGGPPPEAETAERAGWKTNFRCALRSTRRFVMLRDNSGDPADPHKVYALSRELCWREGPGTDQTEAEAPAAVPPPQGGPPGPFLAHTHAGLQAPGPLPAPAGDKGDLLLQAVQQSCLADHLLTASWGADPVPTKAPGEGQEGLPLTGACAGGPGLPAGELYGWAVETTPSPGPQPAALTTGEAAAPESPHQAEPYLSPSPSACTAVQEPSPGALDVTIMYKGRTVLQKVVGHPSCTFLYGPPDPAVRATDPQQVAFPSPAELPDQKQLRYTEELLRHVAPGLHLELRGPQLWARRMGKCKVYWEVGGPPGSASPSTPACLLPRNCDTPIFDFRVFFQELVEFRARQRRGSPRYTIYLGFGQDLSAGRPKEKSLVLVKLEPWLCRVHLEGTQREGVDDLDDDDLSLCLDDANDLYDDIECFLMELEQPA
TTAGAACTGGGGACTGGTTTAGTGCTA: -0.429 z-score
TTAGGTCGCCTTTTCCTTTAGTGCTAG: 1.24 z-score
TCAACTCTCTGCTTGTAACTGTGCTAG: 1.19 z-score
GGCGAACTGGGGTTTCGAGACGTGCTA: 0.532 z-score
TCATAAATGATATATATCACTGTGCTA: 0.00887 z-score
TTAGTTTTCCTTCTCCTTTAGTGCTAG: 4.23 z-score
TCACTCTCTCTATTCTGTGGGTGCTAG: 2 z-score
TTCGATTTCGGGTATCGATTAGTGCTA: 4.17 z-score
TCAAATTGTCCTTTCACACTGTGCTAG: 1.54 z-score
TTAGGTCTCGGTATCGGTTAGTGCTAG: 0.862 z-score
GGGTCTTGCAGTATGGAAAGGTGCTAG: -0.198 z-score
TTAGGTTTCGACTATCCGTTAGTGCTA: 3.58 z-score
CAGAATTTACTTTCTACGTCGTGCTAG: 1.52 z-score
GACGGACTGCGGACTGGGGACGTGCTA: -0.953 z-score
TTAGGTTTCGGTGCCGGTTAGTGCTAG: 3.05 z-score
GACGGTATCGGTAACGGGACGTGCTAG: -0.142 z-score
TCATATATTATATATTTAACTGTGCTA: 0.609 z-score
CCAGTTTTGTGTGTGTGTTTGTGCTAG: 2.11 z-score
TTAGGTCTCCTTTACCTTTAGTGCTAG: 1.16 z-score

Set 4
Target: ABI1, truncated, D143A, DHFR fusion (Arabidopsis thaliana)
Method: DHFR PCA, deep sequencing
Sample: yeast
Notes: methotrexate growth selection, single substitutions
Together with: (+)-ABA 58 µM
Relative to: wild-type fitted maximum
Direction: higher = stronger binding
Quantity: relative binding score
Starting sequence: PYL1, truncated, DHFR fusion (Arabidopsis thaliana); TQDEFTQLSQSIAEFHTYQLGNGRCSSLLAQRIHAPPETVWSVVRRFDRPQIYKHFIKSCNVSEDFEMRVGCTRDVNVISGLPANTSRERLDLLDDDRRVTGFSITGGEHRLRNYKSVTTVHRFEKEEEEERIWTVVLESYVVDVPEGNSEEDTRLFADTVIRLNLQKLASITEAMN; partner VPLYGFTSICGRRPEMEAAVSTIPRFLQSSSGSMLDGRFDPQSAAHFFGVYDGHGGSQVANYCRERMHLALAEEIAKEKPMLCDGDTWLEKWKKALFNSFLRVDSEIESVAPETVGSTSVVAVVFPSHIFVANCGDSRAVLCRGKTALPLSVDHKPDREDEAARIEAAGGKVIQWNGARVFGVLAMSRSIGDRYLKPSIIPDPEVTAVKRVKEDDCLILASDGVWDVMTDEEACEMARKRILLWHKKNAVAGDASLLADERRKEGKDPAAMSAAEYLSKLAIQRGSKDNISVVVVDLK
E152R: 72.6%
V136T: 70%
L169D: 0.0243%
V143D: -1.91%
A13H: 91.2%
A158L: 85.8%
Q2P: 88.9%
E4F: 74%
G102E: 10.3%
W41E: 12.6%
K168W: 80.9%
I12F: 38.6%
I57A: 31.1%
D153R: -2.65%
V40H: 6.57%
C72M: 74.6%
G148P: 60.5%
A30I: 84.9%
V121N: -1.02%
A30T: 91.8%
N85Q: 82.3%
T86V: 65.7%

Set 5
Target: CEP164, C-terminal peptide (human)
Method: DHFR complementation, deep sequencing
Sample: yeast
Notes: single substitutions, model-inferred values
Relative to: wild type
Direction: higher = weaker binding
Quantity: binding free energy change
Starting sequence: PDZK1, PDZ domain 2 (human); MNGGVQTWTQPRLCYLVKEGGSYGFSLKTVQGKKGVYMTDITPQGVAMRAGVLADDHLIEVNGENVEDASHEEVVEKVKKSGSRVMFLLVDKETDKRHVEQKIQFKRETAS; partner HNRVKVYRF
T42M: -0.0558 kcal/mol
Y37D: 1.56 kcal/mol
K92R: 0.342 kcal/mol
Q10D: 0.209 kcal/mol
Q44H: 0.101 kcal/mol
G51A: 0.749 kcal/mol
R107T: -0.194 kcal/mol
G3M: 0.0315 kcal/mol
D56W: 0.307 kcal/mol
K77T: 0.064 kcal/mol
A54F: 0.409 kcal/mol
A54P: -0.181 kcal/mol
V5H: -0.00377 kcal/mol
S83C: -0.413 kcal/mol
T94F: -0.0618 kcal/mol
L89E: 1.35 kcal/mol
K28C: -0.701 kcal/mol
N62K: 0.655 kcal/mol
V75A: 1.08 kcal/mol
N62R: 1.05 kcal/mol
G21A: -0.19 kcal/mol
K106A: -0.32 kcal/mol

Repeated from above (set 4):
A13H: 91.2%
G102E: 10.3%
D153R: -2.65%
V121N: -1.02%
C72M: 74.6%
A158L: 85.8%
G148P: 60.5%
A30T: 91.8%
I57A: 31.1%
W41E: 12.6%
T86V: 65.7%
Q2P: 88.9%
V143D: -1.91%
E152R: 72.6%
